Experimental data from different studies.
Protocols differ between the studies behind these lines. Numbers after ± are the reported error.

O=C(NC(=S)Nc1nc(-c2ccccc2)cc(-c2ccc(Cl)cc2)n1)c1ccc(Cl)cc1  IC50 (alpha-amylase; inhibitor): 1.51 ± 0.039 µM
CC1=C(/C=C/C(C)=C/C=C/C(C)=C/CO)C(C)(C)CCC1  IC50 (Cyclic nucleotide-gated channel alpha-1 (CNGA1, Bos taurus, UniProt Q00194); cGMP-activated current, inhibitor, inside-out patch clamp; Xenopus oocytes; 1 h steady state, +100 mV, with: 2 mM cGMP): 0.3 µM
CN(CC(=O)c1ccc2[nH]c(=O)[nH]c2c1)Cc1ccco1  IC50 (Activation-induced cytidine deaminase (Danio rerio, UniProt Q5YF88); enzyme activity, inhibitor; 25 °C): > 1000 µM
O=C(OC(C(F)(F)F)C(F)(F)F)N1CCC(CCn2ccc3cnccc32)CC1  IC50 (Monoglyceride lipase (MGLL, Homo sapiens, UniProt Q99685); enzyme activity, inhibitor): 1.1 µM
CC(=O)C12NC(C)(C)CC1(C)C(=O)C1=C2c2c(c3c4n2C(C)(C)CC2=C4C4(CC(C)(C)NC(C)(C4)C2=O)CC3(C)C)C(=O)C(C)(C)N1 (single isomer, unassigned; (+))  IC50 (Voltage-dependent P/Q-type calcium channel subunit alpha-1A (Homo sapiens, UniProt O00555); ion current, inhibitor, patch clamp): 10.4 µM
COc1ccc(S(=O)(=O)NCc2c[nH]nc2-c2cccs2)cc1  IC50 (skeletal myosin, rabbit; actin-activated ATPase): 1 ± 0.4 µM
C[C@]12CC[C@@H]3c4cc(Br)c(O)c(Br)c4CC[C@H]3[C@@H]1CCC2=O  IC50 (Aldo-keto reductase family 1 member C1 (AKR1C1, Homo sapiens, UniProt Q04828); enzyme activity, inhibitor, absorbance; pH 9): 5.4 µM
COC(=O)[C@@H](NCc1cc2ccccc2nc1OCc1ccccc1)C(C)C  IC50 (ATP synthase subunit c, whole ATP synthase complex (atpE, Pseudomonas aeruginosa, UniProt Q9HT15); ATP synthesis, inhibitor; Pseudomonas aeruginosa, inverted membrane vesicles; 10 min, with: NADH): 13.2 µM
CC(C)NC(=O)[C@H](CCc1ccccc1)NC(=O)[C@H](CC(=O)NCC(C)(C)C)NC(=O)CCc1ccccc1  IC50 (Proteasome component C5/PSMB5 (Homo sapiens, UniProt P20618+P28074); inhibitor): 0.011 µM
C[C@H](OP(=O)(O)O)[C@H]1NC(=O)[C@H](CCCNC(=N)N)NC(=O)[C@H](CCCNC(=N)N)NC(=O)[C@@H](CCCNC(=N)N)NC(=O)[C@H](CCCNC(=N)N)NC(=O)[C@H](Cc2ccc3ccccc3c2)NC(=O)[C@@H]2CCCCN2C1=O  IC50 (Peptidyl-prolyl cis-trans isomerase NIMA-interacting 1 (PIN1, Homo sapiens, UniProt Q13526); fluorescence anisotropy competition; with: FITC-labelled probe): 5.49 ± 0.16 µM
N=C(N)NCCC[C@@H]1NC(=O)[C@H](Cc2c[nH]c3ccccc23)NC(=O)[C@H](CCCNC(=N)N)NC(=O)[C@H](Cc2c[nH]c3ccccc23)NC(=O)[C@H](CCCNC(=N)N)NC(=O)[C@H](Cc2c[nH]c3ccccc23)NC(=O)[C@H](CCCNC(=N)N)NC(=O)[C@H](Cc2c[nH]c3ccccc23)NC(=O)[C@H](CCCNC(=N)N)NC(=O)[C@H](Cc2c[nH]c3ccccc23)NC(=O)[C@H](CCCNC(=N)N)NC(=O)[C@H](Cc2c[nH]c3ccccc23)NC(=O)[C@H](CCCNC(=N)N)NC(=O)[C@H](Cc2c[nH]c3ccccc23)NC(=O)[C@H](CCCNC(=N)N)NC(=O)[C@H](Cc2c[nH]c3ccccc23)NC(=O)[C@H](CCCNC(=N)N)NC(=O)[C@H](Cc2c[nH]c3ccccc23)NC1=O  IC50 (Tyrosine-protein kinase CSK (CSK, Homo sapiens, UniProt P41240); enzyme activity, inhibitor): 0.34 µM
CC(C)C[C@H](NC(=O)OCc1ccccc1)C(=O)N[C@H](C=O)C[C@H]1CCNC1=O  IC50 (Genome polyprotein, 3C protease (rhinovirus B14, UniProt P03303); 3C protease activity, inhibitor, FRET): 0.26 ± 0.03 µM
CN(CCOc1ccc(F)cc1)C(=O)c1cccc(S(=O)(=O)N2CCc3ccccc3C2)c1  IC50 (KCNA2/KCNA1 (Homo sapiens, UniProt P16389+Q09470); potassium current, inhibitor, automated patch clamp; CHO-K1, concatemer expressing): 0.93 µM
Cn1c(Sc2c3c(c(C#N)c4nc5ccccc5n24)CCC3)nnc1-c1ccccc1  IC50 (ERO1-like protein alpha (Homo sapiens, UniProt Q96HE7); enzyme activity, inhibitor, fluorescence): 16.8 µM

Repeated from above:
O=C(OC(C(F)(F)F)C(F)(F)F)N1CCC(CCn2ccc3cnccc32)CC1  IC50 (Monoglyceride lipase (MGLL, Homo sapiens, UniProt Q99685); enzyme activity, inhibitor): 1.1 µM
COc1ccc(S(=O)(=O)NCc2c[nH]nc2-c2cccs2)cc1  IC50 (skeletal myosin, rabbit; actin-activated ATPase): 1 ± 0.4 µM
